Literature values as cited in several papers.
Several values in a cell are separate wells, animals, samples, runs or records. ± marks the error that the study gave. Converted amounts (≈) assume the structure as drawn.
Sequence of UniProt Q9Y243 (whole entry, looked up): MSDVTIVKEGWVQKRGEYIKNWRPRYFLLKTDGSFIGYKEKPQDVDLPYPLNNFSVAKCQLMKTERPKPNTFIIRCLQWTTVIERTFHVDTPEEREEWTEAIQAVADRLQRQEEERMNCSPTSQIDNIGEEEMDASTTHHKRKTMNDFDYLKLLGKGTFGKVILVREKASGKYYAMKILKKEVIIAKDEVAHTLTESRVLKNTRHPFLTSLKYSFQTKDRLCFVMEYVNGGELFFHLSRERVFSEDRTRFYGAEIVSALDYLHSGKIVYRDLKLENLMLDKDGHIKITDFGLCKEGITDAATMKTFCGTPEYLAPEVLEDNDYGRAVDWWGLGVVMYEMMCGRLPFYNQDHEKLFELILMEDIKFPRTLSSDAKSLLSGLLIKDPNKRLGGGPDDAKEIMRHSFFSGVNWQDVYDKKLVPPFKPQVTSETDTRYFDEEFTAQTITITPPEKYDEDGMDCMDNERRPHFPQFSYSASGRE
Sequence of UniProt Q86X55 (whole entry, looked up): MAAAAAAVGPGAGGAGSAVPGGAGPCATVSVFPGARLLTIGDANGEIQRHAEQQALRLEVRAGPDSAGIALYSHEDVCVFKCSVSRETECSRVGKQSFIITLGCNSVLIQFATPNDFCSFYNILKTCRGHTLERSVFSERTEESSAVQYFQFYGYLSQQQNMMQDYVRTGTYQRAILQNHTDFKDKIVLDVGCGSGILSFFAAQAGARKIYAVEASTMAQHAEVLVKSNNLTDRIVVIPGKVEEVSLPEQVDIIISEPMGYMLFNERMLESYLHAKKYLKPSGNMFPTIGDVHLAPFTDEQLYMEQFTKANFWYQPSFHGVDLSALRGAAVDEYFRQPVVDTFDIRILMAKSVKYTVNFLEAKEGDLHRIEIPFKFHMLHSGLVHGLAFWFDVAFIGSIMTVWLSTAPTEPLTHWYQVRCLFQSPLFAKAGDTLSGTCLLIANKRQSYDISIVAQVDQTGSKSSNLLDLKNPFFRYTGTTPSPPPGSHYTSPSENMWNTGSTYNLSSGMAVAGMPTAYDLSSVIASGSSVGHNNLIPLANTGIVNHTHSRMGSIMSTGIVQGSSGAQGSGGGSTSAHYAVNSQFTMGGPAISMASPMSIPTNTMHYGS
Sequence of UniProt P42336 (whole entry, unmodified, looked up): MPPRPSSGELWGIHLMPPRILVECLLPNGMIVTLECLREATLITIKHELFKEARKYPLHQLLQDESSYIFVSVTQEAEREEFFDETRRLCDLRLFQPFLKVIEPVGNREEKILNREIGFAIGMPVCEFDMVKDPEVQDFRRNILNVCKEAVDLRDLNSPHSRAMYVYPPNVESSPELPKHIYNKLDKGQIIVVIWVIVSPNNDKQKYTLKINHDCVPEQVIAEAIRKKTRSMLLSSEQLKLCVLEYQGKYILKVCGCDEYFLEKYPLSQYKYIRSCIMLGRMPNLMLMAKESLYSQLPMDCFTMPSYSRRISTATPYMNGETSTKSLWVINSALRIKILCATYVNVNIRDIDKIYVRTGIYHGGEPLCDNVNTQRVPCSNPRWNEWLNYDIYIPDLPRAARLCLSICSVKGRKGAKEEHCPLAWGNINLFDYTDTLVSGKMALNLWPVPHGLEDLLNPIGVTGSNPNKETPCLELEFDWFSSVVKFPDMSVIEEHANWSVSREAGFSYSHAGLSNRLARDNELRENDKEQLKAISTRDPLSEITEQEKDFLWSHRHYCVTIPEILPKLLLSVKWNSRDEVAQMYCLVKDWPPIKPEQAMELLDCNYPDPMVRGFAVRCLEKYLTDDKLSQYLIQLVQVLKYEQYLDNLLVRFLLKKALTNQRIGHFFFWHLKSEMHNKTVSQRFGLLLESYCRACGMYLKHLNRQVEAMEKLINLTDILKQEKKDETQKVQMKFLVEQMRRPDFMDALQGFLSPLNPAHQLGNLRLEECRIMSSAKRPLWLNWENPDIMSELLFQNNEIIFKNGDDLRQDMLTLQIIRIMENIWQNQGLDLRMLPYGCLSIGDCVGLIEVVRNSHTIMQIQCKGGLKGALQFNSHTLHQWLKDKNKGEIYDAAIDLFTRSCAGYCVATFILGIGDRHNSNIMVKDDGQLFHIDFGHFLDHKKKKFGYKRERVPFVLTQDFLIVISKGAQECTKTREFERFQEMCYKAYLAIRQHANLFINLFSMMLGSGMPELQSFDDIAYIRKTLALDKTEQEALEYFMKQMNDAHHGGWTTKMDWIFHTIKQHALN

Compound = O=S(=O)(O)O; tested on = hepatocytes; test = anion exchange, substrate; measurement = Km; result = 7 to 16 mM
Compound = C=CC(=O)N1CCC(C(=O)NCC(=O)N2CCN(c3nc(-c4cnc(N)nc4C(F)F)nc(N4CCOCC4)n3)CC2)CC1; tested on = PIK3CA (Homo sapiens, UniProt P42336, C420R); test = kinase activity; conditions = 1 µM; measurement = remaining activity; result = 0.6%
Compound = Cl.Nc1nccc(-c2c(-c3ccc(F)cc3)ncn2C2CCNCC2)n1; tested on = CSNK1G3; test = kinase activity, inhibitor; conditions = 0.5 µM; measurement = inhibition; result = 16%
Compound = COc1ccc(F)cc1C(=O)NCc1ccc(-c2nn([C@@H](C)C(F)(F)F)c(N)c2C(N)=O)cc1; tested on = BTK; test = binding, SPR; conditions = 4 °C; measurement = residence time; result = 210 min
Compound = COc1ccccc1Oc1cccc(CN2CCC(NC(=O)C(CCN3CCCC3)c3ccccc3)CC2)c1 (stereo not shown); tested on = human CCR8 S110A mutant (TM3); test = IP accumulation, agonist; measurement = EC50; result = 1.6 nM
Compound = N=C(NCCCCC(N)C(N)=O)NCCCSC[C@H]1O[C@@H](n2cnc3c(N)ncnc32)[C@H](O)[C@@H]1O (stereo partly shown); tested on = PRMT1; test = enzyme activity, inhibitor; scale = relative to: G9a IC50 over PRMT1 IC50; measurement = selectivity ratio; result = ≥ 33 fold
Compound = COc1ccccc1Oc1cccc(CN2CCC3(CC2)C(=O)NCN3CCc2ccccc2)c1; tested on = human CCR8 F88A mutant (TM2); test = IP accumulation, agonist; measurement = EC50; result = 108 nM
Compound = Cc1ccc(Nc2ncnc3sc(Nc4c(Cl)cccc4Cl)nc23)cc1; tested on = TRPV1; test = calcium flux, antagonist; system = HEK293; conditions = with: capsaicin; measurement = IC50; result = 33 nM
Compound = Oc1c2ccccc2c2c3c(cccc13)N=N2; tested on = CSNK1G3; test = kinase activity, inhibitor; conditions = 0.5 µM; measurement = inhibition; result = -17%
Compound = CCNS(=O)(=O)c1ccc(OC)cc1C1(O)CCN(Cc2cccc(Oc3ccccc3OC)c2)CC1; tested on = human CCR8 Q91W mutant (TM2); test = IP accumulation, agonist; measurement = EC50; result = 180 nM
Compound = C[S+]([O-])c1ccc(-c2nc(-c3ccc(F)cc3)c(-c3ccncc3)[nH]2)cc1 (stereo not shown); tested on = CSNK1G2; test = kinase activity, inhibitor; conditions = 0.5 µM; measurement = inhibition; result = 4%
Compound = CC(C)(O)c1cccc(-c2ccc3nc(-c4ccc(Cl)cc4)cn3c2)c1; tested on = NR4A2 (Nurr1); test = agonist, cell-based; measurement = EC50; result = 218 ± 38 nM
Compound = COc1ccc(C(CNC(=O)Nc2cccc3cnccc23)Cc2ccccc2)cc1 (stereo not shown); tested on = TRPV1; test = calcium flux, antagonist; system = HEK293; conditions = with: capsaicin; measurement = IC50; result = 14 nM
Compound = CCc1ccc(NC(=O)Nc2c[nH]c3ccccc23)cc1; tested on = human STING HAQ allele; scale = relative to: HAQ over wild type; measurement = inhibition ratio; result = 8
Compound = c1cc(-c2cnn3cc(-c4ccc(OCCN5CCCCC5)cc4)cnc23)ccn1; tested on = CSNK1G2; test = kinase activity, inhibitor; conditions = 0.5 µM; measurement = inhibition; result = 26%
Compound = CO[C@H]1/C=C/O[C@@]2(C)Oc3c(C)c(O)c4c(O)c(c(/C=N/N5CCN(C)CC5)c(O)c4c3C2=O)NC(=O)/C(C)=C\C=C\[C@H](C)[C@H](O)[C@@H](C)[C@@H](O)[C@@H](C)[C@H](OC(C)=O)[C@@H]1C; tested on = AADAC; conditions = optimised model value; measurement = kcat; result = 0.164 s⁻¹
Compound = CCCCC/C=C\C[C@@H](O)/C=C/C=C/C=C\[C@@H](O)CCCC(=O)O; tested on = CYP4F3A (human); test = substrate; system = insect cell microsomes; measurement = kcat; result = 0.547 s⁻¹
Compound = Cc1ccc2cccc(NC(=O)c3ccc(OC(C)C)cc3)c2n1; tested on = SERCA2a; measurement = Ca2+ affinity; result = decreased
Compound = [Ca+2]; tested on = cone CNG channel; test = cGMP-gated current; system = intact cone outer segment; conditions = with: cGMP fixed; measurement = K1/2; result = 286 nM and ~290 nM
Compound = COc1ccc(CNc2c(CO)cnc3c(C4CC4)cc(C#N)cc23)cc1Cl; tested on = PDE3; scale = relative to: IC50 PDE3 over PDE5; measurement = selectivity ratio; result = > 10
Compound = COc1cc(CCC(=O)CCCCc2ccccc2)ccc1O; tested on = SERCA2a; test = activator; conditions = concentration not given; scale = relative to: control; measurement = maximal SERCA2a activity increase; result = 25 to 43%
Compound = COCCOCc1ccc(-c2cc3onc(-c4ccccc4)c3c(=O)n2C)cc1; tested on = NR4A2 (Nurr1); test = agonist, cell-based; measurement = EC50; result = 3.9 ± 1.6 nM
Compound = COc1ccccc1Oc1cccc(CN2CCC(O)(c3ccccc3C(=O)O)CC2)c1; tested on = human CCR8 K195A mutant (TM5); test = IP accumulation, agonist; measurement = EC50; result = 47 nM
Compound = O=C(Nc1cccc2c(=O)cc(-c3nnn[nH]3)oc12)c1ccc(OCCCCc2ccccc2)cc1; tested on = VRAC (endogenous); test = swelling-activated current; system = HEK293; measurement = inhibition time constant; result = ~1 min
Compound = Cc1cccc(-c2[nH]c(CNc3ccccc3F)nc2-c2ccc3ncnn3c2)n1; tested on = NTCP; test = transport activity, inhibitor; conditions = up to 100 µM; measurement = inhibition; result = no inhibition
Compound = C[C@H]1COCCN1c1nc(-c2cnc(N)cc2C(F)F)nc(N2CCOCC2)n1; tested on = SUP-T1; measurement = GI50; result = 522 nM
Compound = COc1ccc2c(c1)CCC(NC(=O)Nc1cccc3cnccc13)C2Cc1cccc(Cl)c1 (stereo not shown); tested on = TRPV1; test = calcium flux, antagonist; system = HEK293; conditions = with: capsaicin; measurement = IC50; result = 13 nM
Compound = CNC(C)C1CCC(N)C(OC2C(N)CC(N)C(OC3OCC(C)(O)C(NC)C3O)C2O)O1 (stereo not shown); tested on = Pseudomonas aeruginosa; system = clinical isolate RKI-No_25/14; measurement = MIC; result = 8 µg/mL (≈ 16.8 µM)
Compound = COc1ccccc1Oc1cccc(CN2CCC(NC(=O)C3CC(=O)Nc4ccccc43)CC2)c1 (stereo not shown); tested on = human CCR8 Y42A mutant (TM1); test = IP accumulation, agonist; measurement = EC50; result = 199 nM
Compound = CC(C)[C@H](CO)Nc1nc(Nc2cc(N)cc(Cl)c2)c2ncn(C(C)C)c2n1; tested on = CSNK1G3; test = kinase activity, inhibitor; conditions = 0.5 µM; measurement = inhibition; result = 87%
Compound = Nc1ccc(-c2ccc3cc(OCCF)ccc3n2)cc1; tested on = synthetic tau aggregates; test = binding; measurement = Bmax; result = 0.002 mol/mol
Compound = CC(C)Nc1nc(Nc2ccc(C(F)(F)F)cc2)c2nc(Nc3c(Cl)cccc3Cl)sc2n1; tested on = TRPV1; test = calcium flux, antagonist; system = HEK293; conditions = with: capsaicin; measurement = IC50; result = 13 nM
Compound = Nc1ncnc2c1ncn2[C@@H]1O[C@H](COP(=O)(O)CP(=O)(O)OP(=O)(O)O)[C@@H](O)[C@H]1O; tested on = P2X purinoceptor; conditions = reference compound; measurement = Hill coefficient; result = 1.1
Compound = O=C(O)c1cc(Cl)ccc1S(=O)(=O)NCCCCN1C(=O)c2cccc3cccc(c23)C1=O; tested on = LPA1, LPA3, LPA4, LPA5 receptors; conditions = concentration not given; measurement = receptor activity; result = no effect
Compound = Cc1cc(NC(=O)c2cccc(NC(=O)/C=C/CN(C)C)c2)ccc1Nc1nccc(-c2cccnc2)n1; tested on = CK1; conditions = 1 µM; scale = relative to: control; measurement = remaining activity; result = 18%
Compound = O=C1NC(=O)c2c1c1c3ccccc3[nH]c1n1cncc21; tested on = CSNK1G2; test = kinase activity, inhibitor; conditions = 0.5 µM; measurement = inhibition; result = 37%
Compound = COc1ccc(N2C(=O)N(c3c(C)cccc3Cl)Cc3cnc(Nc4ccc(C5CCN(C)CC5)cc4OC)nc32)nc1; tested on = 468-kinase panel; conditions = 1 µM, inhibition above 90%; measurement = number of kinases inhibited; result = > 60 kinases
Compound = CC1(C)S[C@@H]2[C@H](NC(=O)[C@H](N)c3ccccc3)C(=O)N2[C@H]1C(=O)O; tested on = Pseudomonas aeruginosa; system = clinical isolate RKI-No_40/14; measurement = MIC; result = > 16 µg/mL
Compound = Cc1c(C#N)cccc1[C@@H](C)Nc1nnc(C)c2cnc(N3CCOCC3)cc12; tested on = NCI-H1838; test = 3D cell viability; conditions = 14 d; measurement = IC50; result = 50.1 ± 24.9 nM
Compound = Oc1cc2c(cc1CN1CCN(c3cccc(Cl)c3)CC1)oc1ccccc12; tested on = NR4A3 (NOR-1); test = agonist, cellular; measurement = EC50; result = 1300 ± 300 nM
Compound = Cc1nc(Nc2ccc(C(F)(F)F)c(Cl)c2)c2nc(Nc3c(Cl)cccc3Cl)sc2n1; tested on = TRPV1; test = calcium flux, antagonist; system = HEK293; conditions = with: capsaicin; measurement = IC50; result = 3 nM
Compound = O=C(CCCCCCC(=O)Nc1ccccc1)NO; tested on = HepG2; test = mitochondrial membrane potential; conditions = concentration not given, Tox21; measurement = activity outcome; result = inactive
Compound = CC(C)(C)c1ccc(NC(=O)c2ccc(-c3ncccc3C#N)cc2)cc1; tested on = TRPV1; test = calcium flux, antagonist; system = HEK293; conditions = with: capsaicin; measurement = IC50; result = 30 nM
Compound = CC(C)(O)c1cnc2ncc(-c3ccc(F)c(-c4c(F)cccc4C#N)c3)n2n1; tested on = rat GABAA benzodiazepine site; system = rat; conditions = oral, 0.3 mg/kg; measurement = receptor occupancy; result = 61%
Compound = COc1ccc2c(c1)CCC(NC(=O)Nc1cccc3cnccc13)C2Cc1ccc(Br)cc1 (stereo not shown); tested on = TRPV1; test = calcium flux, antagonist; system = HEK293; conditions = with: capsaicin; measurement = IC50; result = 22 nM
Compound = CCN(c1cc(-c2ccc(CN3CCOCC3)cc2)cc(C(=O)NCc2c(C)cc(C)[nH]c2=O)c1C)C1CCOCC1; tested on = CARM1 (Homo sapiens, UniProt Q86X55); test = enzyme activity, inhibitor; conditions = 1 µM; measurement = inhibition; result = 5 ± 3%
Compound = Nc1cc(C(F)(F)F)c(-c2nc(N3CCOCC3)nc(N3CCOCC3)n2)cn1; tested on = AKT3 (Homo sapiens, UniProt Q9Y243); test = enzyme activity; conditions = 10 µM; scale = relative to: untreated; measurement = remaining activity; result = 97%
Compound = Cc1onc(-c2ccccc2)c1-c1ccc(S(N)(=O)=O)cc1; tested on = NR4A3 (NOR-1); test = cellular; conditions = concentration not given; measurement = activity; result = inactive
Compound = CC(C)Oc1ccc(-c2c[nH]cc2CN(C)CCN)cc1; tested on = PRMT7; test = enzyme activity, inhibitor; conditions = concentration not given; measurement = activity; result = inactive
Compound = CC1=CC(=O)N(c2ccccc2)C1=O; tested on = YqjM (Old Yellow Enzyme homolog); test = ene-reductase biotransformation, substrate; measurement = conversion; result = 98 to 99%
Compound = CC(C)(C)CCc1cc(C(F)(F)F)ccc1CNC(=O)Nc1cccc2[nH]ncc12; tested on = TRPV1; test = calcium flux, antagonist; system = HEK293; conditions = with: capsaicin; measurement = IC50; result = 4.3 nM
Compound = CC(C)n1cnc2c(Nc3cccc(Cl)c3)nc(NCCO)nc21; tested on = CSNK1G2; test = kinase activity, inhibitor; conditions = 0.5 µM; measurement = inhibition; result = 79%
Compound = CCN(CC)CCCCNc1ncc2cc(-c3cc(OC)cc(OC)c3)c(NC(=O)NC(C)(C)C)nc2n1; tested on = c-Met; test = inhibitor; measurement = IC50; result = > 1000 nM
Compound = Nc1nc(Nc2ccc(S(N)(=O)=O)cc2)n(C(=S)Nc2c(F)cccc2F)n1; tested on = CSNK1G2; test = kinase activity, inhibitor; conditions = 0.5 µM; measurement = inhibition; result = 85%
Compound = CCOC(=O)C1=C(C)NC(C)=C(C(=O)OC)C1c1cccc([N+](=O)[O-])c1 (stereo not shown); tested on = HepG2; test = mitochondrial membrane potential; conditions = concentration not given, Tox21; measurement = mitochondrial toxicity; result = active

Repeated from above:
Compound = [Ca+2]; tested on = cone CNG channel; test = cGMP-gated current; system = intact cone outer segment; conditions = with: cGMP fixed; measurement = K1/2; result = 286 nM and ~290 nM
Compound = CCCCC/C=C\C[C@@H](O)/C=C/C=C/C=C\[C@@H](O)CCCC(=O)O; tested on = CYP4F3A (human); test = substrate; system = insect cell microsomes; measurement = kcat; result = 0.547 s⁻¹
Compound = O=S(=O)(O)O; tested on = hepatocytes; test = anion exchange, substrate; measurement = Km; result = 7 to 16 mM
Compound = CC(C)Oc1ccc(-c2c[nH]cc2CN(C)CCN)cc1; tested on = PRMT7; test = enzyme activity, inhibitor; conditions = concentration not given; measurement = activity; result = inactive
Compound = Cc1nc(Nc2ccc(C(F)(F)F)c(Cl)c2)c2nc(Nc3c(Cl)cccc3Cl)sc2n1; tested on = TRPV1; test = calcium flux, antagonist; system = HEK293; conditions = with: capsaicin; measurement = IC50; result = 3 nM
